# Published values of several laboratories.
# Values joined by “and” are separate records of one study, mostly repeats; a detail may differ. Numbers after ± are the reported error.
# Protein AF-9 with DOT1L: Protein AF-9, with DOT1L (Homo sapiens, UniProt P42568)
# UniProt P42568, sequence (whole entry, looked up): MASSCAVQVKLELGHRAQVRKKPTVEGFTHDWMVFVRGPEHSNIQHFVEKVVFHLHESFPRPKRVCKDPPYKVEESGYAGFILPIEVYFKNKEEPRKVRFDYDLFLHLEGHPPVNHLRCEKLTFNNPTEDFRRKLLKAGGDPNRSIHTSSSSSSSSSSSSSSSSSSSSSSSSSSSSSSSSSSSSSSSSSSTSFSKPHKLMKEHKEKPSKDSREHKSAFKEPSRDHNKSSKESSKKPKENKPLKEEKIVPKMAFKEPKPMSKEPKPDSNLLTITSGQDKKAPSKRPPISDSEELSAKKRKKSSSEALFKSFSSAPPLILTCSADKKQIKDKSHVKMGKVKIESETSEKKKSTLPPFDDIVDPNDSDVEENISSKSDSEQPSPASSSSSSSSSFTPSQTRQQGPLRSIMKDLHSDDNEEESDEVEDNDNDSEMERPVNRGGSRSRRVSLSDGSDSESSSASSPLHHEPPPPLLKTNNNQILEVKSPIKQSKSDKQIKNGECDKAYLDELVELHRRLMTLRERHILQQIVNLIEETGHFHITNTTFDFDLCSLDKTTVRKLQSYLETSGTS
# CD274: Programmed cell death 1 ligand 1 (CD274, Homo sapiens, UniProt Q9NZQ7)
# UniProt Q9NZQ7, sequence (whole entry, looked up): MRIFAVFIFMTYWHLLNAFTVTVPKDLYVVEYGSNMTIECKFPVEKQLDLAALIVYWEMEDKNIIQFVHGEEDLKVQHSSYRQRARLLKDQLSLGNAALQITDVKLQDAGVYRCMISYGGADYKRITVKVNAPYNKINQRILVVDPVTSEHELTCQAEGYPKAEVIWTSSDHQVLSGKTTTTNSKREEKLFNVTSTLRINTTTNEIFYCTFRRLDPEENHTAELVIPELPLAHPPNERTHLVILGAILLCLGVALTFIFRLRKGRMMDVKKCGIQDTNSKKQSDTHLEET
# BRD9: Bromodomain-containing protein 9 (BRD9, Homo sapiens, UniProt Q9H8M2)
# UniProt Q9H8M2, sequence (whole entry, looked up): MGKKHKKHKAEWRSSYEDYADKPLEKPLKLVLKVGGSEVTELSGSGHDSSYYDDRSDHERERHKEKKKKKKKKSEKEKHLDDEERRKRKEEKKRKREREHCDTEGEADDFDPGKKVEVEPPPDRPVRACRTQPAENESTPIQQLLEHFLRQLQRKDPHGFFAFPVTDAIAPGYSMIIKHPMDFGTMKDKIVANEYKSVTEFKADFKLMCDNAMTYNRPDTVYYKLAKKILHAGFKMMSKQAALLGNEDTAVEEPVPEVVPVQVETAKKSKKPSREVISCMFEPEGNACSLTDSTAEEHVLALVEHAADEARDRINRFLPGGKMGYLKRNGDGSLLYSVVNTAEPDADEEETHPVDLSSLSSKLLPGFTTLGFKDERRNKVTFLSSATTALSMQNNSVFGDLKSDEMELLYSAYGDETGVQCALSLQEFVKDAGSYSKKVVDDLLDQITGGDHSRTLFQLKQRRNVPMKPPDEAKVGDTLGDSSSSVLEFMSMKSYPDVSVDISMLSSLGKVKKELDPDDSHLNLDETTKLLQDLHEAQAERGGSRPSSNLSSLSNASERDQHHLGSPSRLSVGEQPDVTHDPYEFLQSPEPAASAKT
# UniProt Q63881, sequence (whole entry, looked up): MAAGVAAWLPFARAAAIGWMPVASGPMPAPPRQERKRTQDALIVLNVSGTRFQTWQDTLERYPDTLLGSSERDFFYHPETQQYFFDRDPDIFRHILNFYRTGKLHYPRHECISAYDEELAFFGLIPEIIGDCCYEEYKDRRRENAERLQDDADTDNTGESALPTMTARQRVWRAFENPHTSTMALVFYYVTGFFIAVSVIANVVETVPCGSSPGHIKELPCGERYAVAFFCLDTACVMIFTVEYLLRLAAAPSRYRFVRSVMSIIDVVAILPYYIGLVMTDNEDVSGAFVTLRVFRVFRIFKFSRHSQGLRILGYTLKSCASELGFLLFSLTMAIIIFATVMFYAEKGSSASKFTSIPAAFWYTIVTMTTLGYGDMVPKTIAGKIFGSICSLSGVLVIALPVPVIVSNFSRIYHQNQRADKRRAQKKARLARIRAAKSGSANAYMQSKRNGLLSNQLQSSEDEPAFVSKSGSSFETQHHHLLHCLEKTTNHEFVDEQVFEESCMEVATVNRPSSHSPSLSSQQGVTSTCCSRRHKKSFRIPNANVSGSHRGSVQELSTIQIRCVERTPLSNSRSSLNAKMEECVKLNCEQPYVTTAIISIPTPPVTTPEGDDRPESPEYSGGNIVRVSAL
# UniProt Q13233, sequence (whole entry, looked up): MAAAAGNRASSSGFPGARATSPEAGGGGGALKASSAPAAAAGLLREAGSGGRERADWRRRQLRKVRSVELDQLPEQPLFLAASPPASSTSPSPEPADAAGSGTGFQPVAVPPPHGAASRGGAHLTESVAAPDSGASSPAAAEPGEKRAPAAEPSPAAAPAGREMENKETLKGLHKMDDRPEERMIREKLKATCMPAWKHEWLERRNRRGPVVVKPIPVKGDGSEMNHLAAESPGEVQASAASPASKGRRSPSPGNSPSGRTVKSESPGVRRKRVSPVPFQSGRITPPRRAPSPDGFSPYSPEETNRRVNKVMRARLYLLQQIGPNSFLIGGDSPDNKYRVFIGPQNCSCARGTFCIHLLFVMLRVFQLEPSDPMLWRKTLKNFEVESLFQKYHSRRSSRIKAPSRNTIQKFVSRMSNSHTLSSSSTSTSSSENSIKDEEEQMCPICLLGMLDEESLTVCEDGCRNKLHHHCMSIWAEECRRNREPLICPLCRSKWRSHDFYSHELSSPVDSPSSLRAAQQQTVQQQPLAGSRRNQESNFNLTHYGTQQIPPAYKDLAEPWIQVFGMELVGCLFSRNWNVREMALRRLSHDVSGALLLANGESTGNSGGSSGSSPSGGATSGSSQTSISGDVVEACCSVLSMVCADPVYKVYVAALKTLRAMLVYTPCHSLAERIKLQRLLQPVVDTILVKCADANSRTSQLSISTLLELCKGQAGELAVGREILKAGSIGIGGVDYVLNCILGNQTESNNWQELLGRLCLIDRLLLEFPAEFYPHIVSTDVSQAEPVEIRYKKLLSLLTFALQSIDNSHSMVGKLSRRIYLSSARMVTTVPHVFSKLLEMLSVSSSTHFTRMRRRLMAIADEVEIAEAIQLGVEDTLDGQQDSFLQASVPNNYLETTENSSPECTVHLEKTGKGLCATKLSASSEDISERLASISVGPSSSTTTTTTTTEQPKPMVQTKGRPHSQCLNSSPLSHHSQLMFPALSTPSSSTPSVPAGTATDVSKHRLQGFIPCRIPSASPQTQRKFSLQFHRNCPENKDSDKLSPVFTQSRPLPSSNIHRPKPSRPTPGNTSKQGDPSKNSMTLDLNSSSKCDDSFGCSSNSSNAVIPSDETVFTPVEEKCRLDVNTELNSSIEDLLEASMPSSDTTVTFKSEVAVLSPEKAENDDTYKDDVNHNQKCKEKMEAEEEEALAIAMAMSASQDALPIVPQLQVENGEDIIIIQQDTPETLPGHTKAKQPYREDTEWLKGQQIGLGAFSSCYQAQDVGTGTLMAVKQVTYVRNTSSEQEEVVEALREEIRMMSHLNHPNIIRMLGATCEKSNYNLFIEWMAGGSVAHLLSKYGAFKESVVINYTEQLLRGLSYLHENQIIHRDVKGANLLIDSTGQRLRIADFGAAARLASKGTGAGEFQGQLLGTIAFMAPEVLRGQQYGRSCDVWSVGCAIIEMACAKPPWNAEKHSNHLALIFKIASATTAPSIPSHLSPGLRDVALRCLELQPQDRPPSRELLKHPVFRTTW
# UniProt Q9UBF8, sequence (whole entry, looked up): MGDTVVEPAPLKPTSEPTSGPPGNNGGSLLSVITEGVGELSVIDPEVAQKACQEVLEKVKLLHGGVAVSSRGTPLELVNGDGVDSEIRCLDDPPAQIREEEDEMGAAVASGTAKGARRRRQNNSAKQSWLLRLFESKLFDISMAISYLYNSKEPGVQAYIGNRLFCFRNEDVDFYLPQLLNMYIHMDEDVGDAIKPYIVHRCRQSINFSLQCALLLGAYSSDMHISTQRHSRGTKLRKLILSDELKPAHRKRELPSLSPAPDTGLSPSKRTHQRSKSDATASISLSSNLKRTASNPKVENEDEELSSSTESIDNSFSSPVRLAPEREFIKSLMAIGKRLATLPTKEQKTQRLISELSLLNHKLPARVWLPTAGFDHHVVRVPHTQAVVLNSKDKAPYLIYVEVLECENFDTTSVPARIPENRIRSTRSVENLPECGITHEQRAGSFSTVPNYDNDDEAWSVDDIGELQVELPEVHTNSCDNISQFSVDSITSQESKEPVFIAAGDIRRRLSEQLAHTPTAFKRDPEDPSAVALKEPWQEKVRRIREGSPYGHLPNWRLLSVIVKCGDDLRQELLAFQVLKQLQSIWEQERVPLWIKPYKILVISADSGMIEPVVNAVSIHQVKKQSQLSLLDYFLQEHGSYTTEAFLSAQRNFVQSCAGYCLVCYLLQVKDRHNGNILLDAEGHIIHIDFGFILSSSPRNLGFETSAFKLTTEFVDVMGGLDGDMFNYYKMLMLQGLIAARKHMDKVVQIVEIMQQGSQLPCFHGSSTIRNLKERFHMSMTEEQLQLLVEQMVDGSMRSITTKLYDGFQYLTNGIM
# UniProt Q13336, sequence (whole entry, looked up): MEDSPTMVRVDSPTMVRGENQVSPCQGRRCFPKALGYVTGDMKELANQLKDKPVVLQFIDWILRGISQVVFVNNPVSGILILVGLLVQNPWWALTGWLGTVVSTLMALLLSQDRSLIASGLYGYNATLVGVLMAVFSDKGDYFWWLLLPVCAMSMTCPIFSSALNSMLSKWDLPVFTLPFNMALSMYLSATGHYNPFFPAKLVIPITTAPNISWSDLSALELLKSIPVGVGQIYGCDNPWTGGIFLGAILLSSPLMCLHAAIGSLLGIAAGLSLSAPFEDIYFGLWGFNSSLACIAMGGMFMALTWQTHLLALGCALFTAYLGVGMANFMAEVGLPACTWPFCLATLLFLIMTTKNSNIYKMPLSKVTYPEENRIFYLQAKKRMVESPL
Compound,target,test,test system,setting,inhibition
c1cc(N2CCOCC2)ccc1-c1ccc2ncc(OCC3CCNCC3)nc2c1,Protein AF-9 with DOT1L,"DOT1L binding, AlphaLISA",,10 µM,47.8%
Cn1cc(-c2cnc3ccc(NC(=O)Nc4ccc(F)c(Br)c4)cc3n2)cn1,"Mitogen-activated protein kinase kinase kinase 1 (MAP3K1, Homo sapiens, UniProt Q13233)","kinase binding, KiNativ profiling, measured: Lys2 peptide",PANC-1 lysate,2.5 µM,39.4%
[2H]c1cc(C)c(NC(=O)c2cnc(Nc3cc(N4CCCCC4)nc(C)n3)s2)c(Cl)c1,"Protein-tyrosine kinase 6 (PTK6, Homo sapiens, UniProt Q13882)",,,0.01 µM,30 to 90%
Ic1cccc2cnccc12,phorbol ester binding site (mouse),"radioligand binding, inhibitor",,10 µM,-5%
CC[C@@H]1[C@H](F)C(=O)N[C@@H]1COc1nccc2cc(C(N)=O)c(OC)cc12,"Phosphatidylinositol 4-kinase beta (PI4KB, Homo sapiens, UniProt Q9UBF8)","ATP-site probe binding, ActivX profiling",THP-1 cell lysate,0.04 mM,-0.342%
COc1ccc(C(=O)/C=C/c2cccc(-c3cccc(-c4ccc(CNC5CCC(=O)NC5=O)c(OC)n4)c3C)c2)cc1 (centres unmarked),CD274,"binding, inhibitor, HTRF",,1 µM,13.5 ± 2.1%
Cn1ncc2c(NC(P(=O)(O)O)P(=O)(O)O)nc(-c3cccc(C(=O)Nc4ccc(C(F)(F)F)cc4)c3)nc21,"Farnesyl pyrophosphate synthase (FDPS, Homo sapiens, UniProt P14324)",enzyme activity,,"1 µM, 10 min preincubation",no inhibition
COc1ccc(C(=O)/C=C/c2cccc(-c3cccc(-c4ccc(CNCC(C)(C)C(N)=O)c(OC)n4)c3C)c2)cc1,CD274,"binding, inhibitor, HTRF",,1 µM,7 ± 1.7%
COc1cc(-c2cc(C(C)=O)n3ccccc23)cc(OC)c1CN1CC(O)C1,BRD9,AlphaScreen,,1 µM,95.1%
O=C(CCc1ccc(O)cc1)c1c(O)cc(O)cc1O,"Urea transporter 1 (Homo sapiens, UniProt Q13336)",urea transport,human cells,"500 µM, together with: [14C]urea",97.7%
CCC(=O)c1cc(-c2cc(OC)c(Cn3ccnc3)cc2OC)c2ccccn12,BRD9,AlphaScreen,,1 µM,90.7%
Cc1ccc(NC(=O)Nc2ccc3ncc(OCC4CCNCC4)nc3c2)cc1C,Protein AF-9 with DOT1L,"DOT1L binding, AlphaLISA",,10 µM,12%
CCNCc1cnn(-c2ccc(-n3ccc(Cl)c(Cl)c3=O)cc2)c1C(F)(F)F,"Transient receptor potential cation channel subfamily V member 1 (Trpv1, Rattus norvegicus, UniProt O35433)","ion current, inhibitor, whole-cell patch clamp",,"10 µM, together with: capsaicin-activated",no inhibition
CC(C)c1noc2ncc(C(=O)c3ccccc3O)cc12,"A-type voltage-gated potassium channel KCND2 (Rattus norvegicus, UniProt Q63881)","ion current, inhibitor, whole-cell patch clamp",,10 µM,7.97% and 8.92% and 20.3% and 21.5% and 13%
CCOCCOCCOCCNC(=S)NCCCC[C@H](NS(C)(=O)=O)C(=O)N[C@H](C)C(=O)N[C@@H](CCCNC(=N)N)C(N)=O,"NAD-dependent protein deacetylase sirtuin-3, mitochondrial (SIRT3, Homo sapiens, UniProt Q9NTG7)","enzyme activity, inhibitor",,10 µM,< 5%
COc1cc(-c2cc(C(C)=O)n3ccccc23)c(OC)cc1C(=O)N(C)C,BRD9,AlphaScreen,,1 µM,95.5%
Fc1ccc(Nc2ccc3ncc(OCC4CCNCC4)nc3c2)cc1,Protein AF-9 with DOT1L,"DOT1L binding, AlphaLISA",,10 µM,19 to 40%

# A few entries again:
Compound,target,test,test system,setting,inhibition
COc1ccc(C(=O)/C=C/c2cccc(-c3cccc(-c4ccc(CNCC(C)(C)C(N)=O)c(OC)n4)c3C)c2)cc1,CD274,"binding, inhibitor, HTRF",,1 µM,7 ± 1.7%
